Measurements pooled from the literature.
Each numbered part is a random draw from the data of one study; scales do not carry over between parts. Values joined by “and” are separate records of one study, mostly repeats; a detail may differ.
Chain of UniProt Q9HBY8 (whole entry, looked up): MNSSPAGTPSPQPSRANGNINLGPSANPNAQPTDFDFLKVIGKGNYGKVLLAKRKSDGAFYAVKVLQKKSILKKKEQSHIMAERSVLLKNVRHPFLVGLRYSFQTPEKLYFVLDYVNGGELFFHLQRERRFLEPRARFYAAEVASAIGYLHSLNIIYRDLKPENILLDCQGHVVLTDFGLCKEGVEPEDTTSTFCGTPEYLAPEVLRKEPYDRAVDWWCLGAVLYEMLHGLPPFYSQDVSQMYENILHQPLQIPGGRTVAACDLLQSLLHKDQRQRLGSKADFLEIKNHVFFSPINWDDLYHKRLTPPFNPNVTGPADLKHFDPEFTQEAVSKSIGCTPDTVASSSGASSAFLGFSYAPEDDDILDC
Chain of UniProt P29317 (whole entry, looked up): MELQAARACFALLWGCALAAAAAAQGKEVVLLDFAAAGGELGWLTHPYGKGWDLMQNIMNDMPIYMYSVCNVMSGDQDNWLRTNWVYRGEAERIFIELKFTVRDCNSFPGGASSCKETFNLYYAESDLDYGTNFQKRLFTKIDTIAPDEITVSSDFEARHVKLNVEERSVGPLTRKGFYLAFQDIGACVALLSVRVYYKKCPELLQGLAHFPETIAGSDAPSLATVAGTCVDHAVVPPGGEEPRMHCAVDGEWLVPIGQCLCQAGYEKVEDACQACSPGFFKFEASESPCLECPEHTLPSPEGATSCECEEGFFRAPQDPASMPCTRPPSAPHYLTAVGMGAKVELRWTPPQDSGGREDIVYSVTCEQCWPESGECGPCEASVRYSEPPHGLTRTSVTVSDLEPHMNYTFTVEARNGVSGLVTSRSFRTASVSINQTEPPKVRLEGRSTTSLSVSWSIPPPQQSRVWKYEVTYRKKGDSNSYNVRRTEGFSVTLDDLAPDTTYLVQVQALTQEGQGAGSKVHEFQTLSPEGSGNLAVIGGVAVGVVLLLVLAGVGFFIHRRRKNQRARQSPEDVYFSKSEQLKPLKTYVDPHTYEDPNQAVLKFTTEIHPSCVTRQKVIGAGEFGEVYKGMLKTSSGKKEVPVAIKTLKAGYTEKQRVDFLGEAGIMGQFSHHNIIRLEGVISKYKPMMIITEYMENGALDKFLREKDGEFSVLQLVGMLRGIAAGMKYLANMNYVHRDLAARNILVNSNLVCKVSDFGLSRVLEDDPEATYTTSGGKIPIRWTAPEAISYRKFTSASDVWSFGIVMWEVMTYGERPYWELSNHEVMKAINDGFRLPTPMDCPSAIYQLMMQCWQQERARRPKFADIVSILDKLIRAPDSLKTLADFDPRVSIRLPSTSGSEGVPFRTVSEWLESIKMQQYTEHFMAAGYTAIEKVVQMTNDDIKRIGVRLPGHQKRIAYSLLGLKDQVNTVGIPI
Chain of UniProt Q14012 (whole entry, looked up): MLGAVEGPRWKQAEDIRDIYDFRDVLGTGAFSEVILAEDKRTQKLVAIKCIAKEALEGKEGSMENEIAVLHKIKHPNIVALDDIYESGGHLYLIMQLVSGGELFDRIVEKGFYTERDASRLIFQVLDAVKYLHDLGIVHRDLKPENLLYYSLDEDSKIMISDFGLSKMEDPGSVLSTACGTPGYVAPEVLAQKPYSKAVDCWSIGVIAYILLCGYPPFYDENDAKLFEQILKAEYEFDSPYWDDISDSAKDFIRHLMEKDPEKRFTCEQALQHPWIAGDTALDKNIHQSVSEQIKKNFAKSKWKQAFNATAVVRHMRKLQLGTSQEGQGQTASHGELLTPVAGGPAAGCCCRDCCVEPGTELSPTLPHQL
Chain of UniProt P49759 (whole entry, looked up): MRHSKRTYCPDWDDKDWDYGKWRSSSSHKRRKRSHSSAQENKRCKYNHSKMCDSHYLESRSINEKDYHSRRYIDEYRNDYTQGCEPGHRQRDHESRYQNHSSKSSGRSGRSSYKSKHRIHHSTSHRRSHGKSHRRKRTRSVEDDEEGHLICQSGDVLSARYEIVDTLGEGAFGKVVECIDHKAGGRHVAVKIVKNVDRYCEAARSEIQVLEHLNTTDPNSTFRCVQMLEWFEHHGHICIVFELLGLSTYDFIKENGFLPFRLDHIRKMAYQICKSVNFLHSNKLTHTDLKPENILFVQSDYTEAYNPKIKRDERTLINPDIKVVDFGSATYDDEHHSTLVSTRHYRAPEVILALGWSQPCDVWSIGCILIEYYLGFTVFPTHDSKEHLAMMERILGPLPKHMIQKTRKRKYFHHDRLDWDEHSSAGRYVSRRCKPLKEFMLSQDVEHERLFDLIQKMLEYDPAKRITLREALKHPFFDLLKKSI
Chain of UniProt Q8N5S9 (whole entry, looked up): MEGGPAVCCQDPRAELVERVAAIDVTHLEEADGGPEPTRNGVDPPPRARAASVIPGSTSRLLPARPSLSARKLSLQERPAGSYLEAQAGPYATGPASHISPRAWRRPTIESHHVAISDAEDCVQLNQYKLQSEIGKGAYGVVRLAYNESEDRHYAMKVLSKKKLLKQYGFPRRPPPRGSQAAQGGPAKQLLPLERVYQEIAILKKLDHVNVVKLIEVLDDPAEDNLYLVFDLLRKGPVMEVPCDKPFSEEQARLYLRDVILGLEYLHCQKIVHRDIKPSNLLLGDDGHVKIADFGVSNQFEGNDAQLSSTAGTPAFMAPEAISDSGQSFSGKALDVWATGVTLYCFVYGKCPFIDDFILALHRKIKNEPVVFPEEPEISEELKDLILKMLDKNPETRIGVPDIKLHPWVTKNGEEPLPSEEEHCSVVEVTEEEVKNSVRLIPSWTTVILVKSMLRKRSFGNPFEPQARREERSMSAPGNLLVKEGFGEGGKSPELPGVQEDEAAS
Chain of UniProt Q96SB4 (whole entry, looked up): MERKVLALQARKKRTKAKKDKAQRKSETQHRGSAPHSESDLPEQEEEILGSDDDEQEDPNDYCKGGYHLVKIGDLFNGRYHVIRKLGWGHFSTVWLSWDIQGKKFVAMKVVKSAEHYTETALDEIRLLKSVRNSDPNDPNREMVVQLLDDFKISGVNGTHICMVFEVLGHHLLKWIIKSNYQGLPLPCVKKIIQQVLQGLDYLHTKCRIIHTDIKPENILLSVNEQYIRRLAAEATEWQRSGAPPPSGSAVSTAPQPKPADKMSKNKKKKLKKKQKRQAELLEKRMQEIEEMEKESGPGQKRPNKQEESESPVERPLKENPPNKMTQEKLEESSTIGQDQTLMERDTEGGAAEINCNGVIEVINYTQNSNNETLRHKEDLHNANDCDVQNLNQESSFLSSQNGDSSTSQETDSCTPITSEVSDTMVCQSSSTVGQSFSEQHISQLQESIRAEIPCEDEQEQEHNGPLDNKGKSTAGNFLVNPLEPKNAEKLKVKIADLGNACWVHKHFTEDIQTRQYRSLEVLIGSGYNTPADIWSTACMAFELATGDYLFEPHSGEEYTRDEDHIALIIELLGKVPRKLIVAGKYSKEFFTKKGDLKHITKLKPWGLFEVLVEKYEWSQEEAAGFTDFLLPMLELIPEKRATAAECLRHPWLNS
Chain of UniProt P23458 (whole entry, looked up): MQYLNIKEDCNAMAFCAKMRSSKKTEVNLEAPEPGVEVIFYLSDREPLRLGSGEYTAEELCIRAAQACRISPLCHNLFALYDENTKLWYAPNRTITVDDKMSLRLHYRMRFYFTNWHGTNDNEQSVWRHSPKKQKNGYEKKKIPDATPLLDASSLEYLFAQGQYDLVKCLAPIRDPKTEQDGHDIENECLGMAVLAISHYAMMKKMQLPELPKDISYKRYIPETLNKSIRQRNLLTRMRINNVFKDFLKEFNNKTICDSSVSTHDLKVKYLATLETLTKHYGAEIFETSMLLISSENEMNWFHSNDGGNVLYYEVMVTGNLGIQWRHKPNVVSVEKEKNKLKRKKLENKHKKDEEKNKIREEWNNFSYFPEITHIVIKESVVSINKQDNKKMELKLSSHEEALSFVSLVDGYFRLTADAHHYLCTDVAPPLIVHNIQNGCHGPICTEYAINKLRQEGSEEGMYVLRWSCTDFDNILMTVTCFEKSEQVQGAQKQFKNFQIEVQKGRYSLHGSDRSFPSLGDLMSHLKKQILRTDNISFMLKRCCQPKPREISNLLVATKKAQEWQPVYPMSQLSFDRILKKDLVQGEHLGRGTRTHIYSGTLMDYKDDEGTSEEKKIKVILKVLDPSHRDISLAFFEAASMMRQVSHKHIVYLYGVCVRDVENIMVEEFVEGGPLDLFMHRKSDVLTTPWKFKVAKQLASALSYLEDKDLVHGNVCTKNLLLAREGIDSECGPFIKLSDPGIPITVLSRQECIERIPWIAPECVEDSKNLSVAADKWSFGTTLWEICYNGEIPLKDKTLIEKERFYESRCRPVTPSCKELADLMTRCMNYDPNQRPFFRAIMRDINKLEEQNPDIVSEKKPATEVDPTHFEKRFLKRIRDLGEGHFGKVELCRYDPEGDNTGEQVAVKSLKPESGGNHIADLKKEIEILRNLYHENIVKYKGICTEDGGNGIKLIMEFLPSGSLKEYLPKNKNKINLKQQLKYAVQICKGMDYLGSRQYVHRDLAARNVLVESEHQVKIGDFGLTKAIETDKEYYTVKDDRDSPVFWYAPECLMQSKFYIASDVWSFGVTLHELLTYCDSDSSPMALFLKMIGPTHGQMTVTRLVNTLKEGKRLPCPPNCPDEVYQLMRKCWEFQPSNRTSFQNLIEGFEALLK
Chain of UniProt P49760 (whole entry, looked up): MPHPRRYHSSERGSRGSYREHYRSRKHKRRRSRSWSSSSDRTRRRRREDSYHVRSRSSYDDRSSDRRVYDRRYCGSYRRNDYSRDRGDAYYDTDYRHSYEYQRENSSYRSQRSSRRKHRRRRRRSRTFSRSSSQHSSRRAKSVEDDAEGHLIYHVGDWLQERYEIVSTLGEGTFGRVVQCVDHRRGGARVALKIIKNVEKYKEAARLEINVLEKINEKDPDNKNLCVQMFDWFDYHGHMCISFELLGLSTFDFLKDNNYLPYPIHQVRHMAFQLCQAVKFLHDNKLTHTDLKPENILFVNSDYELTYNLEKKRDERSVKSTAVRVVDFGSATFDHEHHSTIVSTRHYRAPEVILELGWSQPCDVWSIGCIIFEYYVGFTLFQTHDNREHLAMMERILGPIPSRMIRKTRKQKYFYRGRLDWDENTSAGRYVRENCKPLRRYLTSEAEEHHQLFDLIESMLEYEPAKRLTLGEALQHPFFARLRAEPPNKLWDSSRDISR

Block 1
SMILES: COc1cc2c(N3CCN(C(=O)Nc4ccc(OC(C)C)cc4)CC3)ncnc2cc1OCCCN1CCCCC1
Effect on: enzyme activity
Mode: inhibitor
Tested at: 0.5 µM
Reference: control
| target | remaining activity [%] |
| --- | --- |
| Tyrosine-protein kinase Tec (TEC, Homo sapiens, UniProt P42680) | 89 |
| Dual specificity protein kinase CLK1 (CLK1, Homo sapiens, UniProt P49759) | 72.4 |
| Insulin-like growth factor 1 receptor (IGF1R, Homo sapiens, UniProt P08069) | 97.7 |
| Tyrosine-protein kinase JAK1 (JAK1, Homo sapiens, UniProt P23458) | 102 |
| Protein kinase C zeta type (PRKCZ, Homo sapiens, UniProt Q05513) | 103 |
| Calcium/calmodulin-dependent protein kinase kinase 1 (CAMKK1, Homo sapiens, UniProt Q8N5S9) | 90.3 |
| Serine/threonine-protein kinase Sgk2 (SGK2, Homo sapiens, UniProt Q9HBY8) | 105 |
| Calcium/calmodulin-dependent protein kinase type 1 (CAMK1, Homo sapiens, UniProt Q14012) | 101 |
| Dual specificity protein kinase CLK2 (CLK2, Homo sapiens, UniProt P49760) | 80.7 |
| Serine/threonine-protein kinase PAK 6 (PAK6, Homo sapiens, UniProt Q9NQU5) | 101 |
| Protein kinase C theta type (PRKCQ, Homo sapiens, UniProt Q04759) | 103 |
| SRSF protein kinase 1 (SRPK1, Homo sapiens, UniProt Q96SB4) | 98.2 |
| Tyrosine-protein kinase receptor TYRO3 (TYRO3, Homo sapiens, UniProt Q06418) | 101 |
| Ephrin type-A receptor 6 (EPHA6, Homo sapiens, UniProt Q9UF33) | 103 |
| Cyclin-dependent kinase 2, with cyclin E (CDK2, Homo sapiens, UniProt P24941) | 96.7 |
| Vascular endothelial growth factor receptor 1 (FLT1, Homo sapiens, UniProt P17948) | 99.4 |
| Ephrin type-A receptor 2 (EPHA2, Homo sapiens, UniProt P29317) | 102 |
| Ribosomal protein S6 kinase alpha-3 (RPS6KA3, Homo sapiens, UniProt P51812) | 96.7 |

Block 2
Cell line: mouse MPNST tumor cells
Method: high-content nuclear imaging
Refers to: cell number
Tested at: 10 µM
Time: 12 h
Notes: mean of 2 replicates
Reference: plate mean
Direction: higher = more cells
| SMILES | nuclei count |
| --- | --- |
| Cc1cnc(Nc2ccc(F)cc2Cl)nc1-c1c[nH]c(C(=O)N[C@H](CO)c2cccc(Cl)c2)c1 | -0.984 z-score |
| CCC[C@H](N[C@@H](C)C(=O)N1[C@H](C(=O)O)C[C@@H]2CCCC[C@@H]21)C(=O)OCC | 1.51 z-score |
| C/C(=N\NC(=O)C1C(=O)NCC1c1ccccc1)c1cccc(Br)c1 (stereo not drawn) | 1.15 z-score |
| CC(C)N(CCCNC(=O)Nc1ccc(C(C)(C)C)cc1)C[C@H]1O[C@@H](n2ccc3c(N)ncnc32)[C@H](O)[C@@H]1O | 2.41 z-score |
| CN(C)CCC1(c2ccc(Cl)cc2)Cc2ccccc2C(=O)O1 (stereo not drawn) | 0.479 z-score |
| COc1cc2c(cc1OC)CN(C(=O)[C@@H](NCc1ccncc1)C(C)(C)C)CC2 | -1 z-score |
| CC(C)[C@H](N)C(=O)OCCOCn1cnc2c(=O)nc(N)[nH]c21 | 0.578 z-score |
| CC1=C(C#N)C(=C(C#N)C#N)OC1(C)c1ccc(Cl)c(Cl)c1 (stereo not drawn) | -1.62 z-score |
| c1ccc([C@H]2CN3CCSC3=N2)cc1 | 0.24 z-score and 0.89 z-score |
| CC(C)C(=O)Nc1ccc([N+](=O)[O-])c(C(F)(F)F)c1 | -0.331 z-score and 1.2 z-score and 0.539 z-score |
| CC(C)C[C@@H](C(=O)N[C@H](C(=O)OC1CCCC1)c1ccccc1)[C@H](O)C(=O)NO | 0.704 z-score |
| CCN(CC)CCCC(C)Nc1nc(C)cc(Nc2ccc3nc(C)cc(N)c3c2)n1 (stereo not drawn) | 1.71 z-score |

Block 3
Species: mouse
Medium: microsomes or S9
Tested at: 2 µM
Time: 0.5 h
| Compound | remaining compound [%] |
| --- | --- |
| Cc1nc2c(c(C)c(C)n2CCC2CCO2)c(-c2cc(F)c3c(c2C)CCCO3)c1[C@H](OC(C)(C)C)C(=O)O (stereo partly drawn) | 45.1 |
| CCCNc1c(C(=O)OC)nc2ccc(Cl)cn12 | 0.856 |
| CCOc1cc(/C=N/n2cnnc2)cc(Cl)c1OCCOc1cc(C)ccc1C(C)C | 65.4 |
| O=C(CN1C(=O)c2ccccc2N2C(=O)c3ccccc3C12)Nc1ccncc1 (stereo not drawn) | 84 |
| C/C=C/Cn1c(C(=O)c2ccccc2)c(C(C)C)c(=O)[nH]c1=O | 99.4 |
| CCO[C@H]1CN(Cc2ccc3[nH]ccc3c2)C[C@@H]1O | 57.7 |
| CCCC1(CCC)c2cc(NC(=O)[C@@H]3CCCN3C(=O)OC(C)(C)C)ccc2-c2ccc(NC(=O)[C@@H]3CCCN3C(=O)OC(C)(C)C)cc21 | 19.2 |

Other studies, line by line
| SMILES | target | test | setting | endpoint | result |
| --- | --- | --- | --- | --- | --- |
| C=CCc1ccc(O)c(-c2cc(CC=C)ccc2O)c1 | Anoctamin-1 (ANO1, Homo sapiens, UniProt Q5XXA6, del476-501) | chloride current, inhibitor, whole-cell voltage clamp | wild type at 100 mV, added: 300 nM Ca2+ | Hill slope | 0.79 |
| C[C@H](c1ccnc(Nc2nc3ccc(-c4cc(N(C)C)ncn4)cc3[nH]2)c1)N1CCN(C(=O)CC(F)(F)F)CC1 | Receptor-type tyrosine-protein kinase FLT3 (FLT3, Homo sapiens, UniProt P36888) | in vitro binding |  | binding affinity | 123 nM |

For quick reference, copied from above (block 1):
| target | remaining activity [%] |
| --- | --- |
| Tyrosine-protein kinase receptor TYRO3 (TYRO3, Homo sapiens, UniProt Q06418) | 101 |
| Insulin-like growth factor 1 receptor (IGF1R, Homo sapiens, UniProt P08069) | 97.7 |
